Published values pooled from the literature.
Each line is one published result; not all experiments were run side by side. Values joined by “and” are separate records of one study, mostly repeats; a detail may differ. ± marks the error that the study gave.
TDP1: Tyrosyl-DNA phosphodiesterase 1 (TDP1, Homo sapiens, UniProt Q9NUW8)
Sequence of UniProt Q9NUW8 (whole entry, looked up): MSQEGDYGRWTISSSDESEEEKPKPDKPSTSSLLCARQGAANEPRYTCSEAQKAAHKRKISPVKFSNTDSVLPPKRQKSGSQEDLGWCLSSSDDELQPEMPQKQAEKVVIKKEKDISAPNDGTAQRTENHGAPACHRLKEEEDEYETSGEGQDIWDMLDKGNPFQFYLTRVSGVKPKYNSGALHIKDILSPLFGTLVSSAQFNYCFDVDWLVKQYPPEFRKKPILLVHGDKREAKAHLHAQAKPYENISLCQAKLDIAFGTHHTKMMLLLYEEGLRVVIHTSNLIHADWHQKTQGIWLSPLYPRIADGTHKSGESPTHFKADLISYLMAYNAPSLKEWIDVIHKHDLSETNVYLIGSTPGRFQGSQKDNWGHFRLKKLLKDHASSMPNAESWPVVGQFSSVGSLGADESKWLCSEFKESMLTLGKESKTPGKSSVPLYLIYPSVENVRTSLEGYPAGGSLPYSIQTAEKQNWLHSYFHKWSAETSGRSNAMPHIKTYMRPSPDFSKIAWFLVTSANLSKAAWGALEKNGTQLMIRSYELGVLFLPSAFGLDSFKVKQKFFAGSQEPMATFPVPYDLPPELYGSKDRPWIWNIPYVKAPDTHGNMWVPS
Sequence of UniProt Q13428 (whole entry, looked up): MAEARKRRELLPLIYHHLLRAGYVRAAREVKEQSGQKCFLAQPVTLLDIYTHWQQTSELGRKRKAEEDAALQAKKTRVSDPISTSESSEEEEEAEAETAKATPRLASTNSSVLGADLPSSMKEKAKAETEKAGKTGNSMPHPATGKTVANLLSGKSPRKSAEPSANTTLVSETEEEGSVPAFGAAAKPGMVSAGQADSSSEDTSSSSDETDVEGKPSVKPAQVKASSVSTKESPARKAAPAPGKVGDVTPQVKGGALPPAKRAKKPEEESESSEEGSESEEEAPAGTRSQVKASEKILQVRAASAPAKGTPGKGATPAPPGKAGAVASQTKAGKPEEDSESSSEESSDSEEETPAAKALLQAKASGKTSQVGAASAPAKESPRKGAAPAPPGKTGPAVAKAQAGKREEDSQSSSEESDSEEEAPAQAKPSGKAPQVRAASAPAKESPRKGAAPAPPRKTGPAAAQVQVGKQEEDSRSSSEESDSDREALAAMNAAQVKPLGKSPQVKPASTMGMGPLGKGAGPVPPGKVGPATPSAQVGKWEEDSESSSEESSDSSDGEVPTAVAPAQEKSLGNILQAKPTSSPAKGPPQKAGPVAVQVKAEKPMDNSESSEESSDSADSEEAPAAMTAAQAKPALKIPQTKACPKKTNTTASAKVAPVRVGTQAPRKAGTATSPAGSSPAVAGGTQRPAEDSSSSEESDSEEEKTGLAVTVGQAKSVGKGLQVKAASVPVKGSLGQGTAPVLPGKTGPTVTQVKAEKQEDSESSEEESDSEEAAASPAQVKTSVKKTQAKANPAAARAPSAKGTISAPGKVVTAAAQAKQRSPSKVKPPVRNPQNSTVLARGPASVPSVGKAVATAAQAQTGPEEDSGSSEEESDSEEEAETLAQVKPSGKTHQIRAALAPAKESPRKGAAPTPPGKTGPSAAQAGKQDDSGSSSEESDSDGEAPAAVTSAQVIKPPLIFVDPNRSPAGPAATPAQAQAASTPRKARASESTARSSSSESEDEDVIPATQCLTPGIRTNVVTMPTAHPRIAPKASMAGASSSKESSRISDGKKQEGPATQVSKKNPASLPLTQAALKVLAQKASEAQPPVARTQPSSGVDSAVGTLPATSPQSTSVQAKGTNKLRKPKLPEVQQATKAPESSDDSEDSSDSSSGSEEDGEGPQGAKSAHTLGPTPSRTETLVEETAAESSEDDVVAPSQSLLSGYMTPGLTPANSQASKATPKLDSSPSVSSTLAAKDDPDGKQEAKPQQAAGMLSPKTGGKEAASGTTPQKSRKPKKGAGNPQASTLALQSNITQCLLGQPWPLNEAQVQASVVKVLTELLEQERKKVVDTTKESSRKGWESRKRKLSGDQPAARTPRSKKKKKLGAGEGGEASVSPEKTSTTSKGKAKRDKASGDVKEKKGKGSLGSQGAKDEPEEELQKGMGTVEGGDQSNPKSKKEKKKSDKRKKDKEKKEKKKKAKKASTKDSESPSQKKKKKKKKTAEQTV

Compound	target or system	assay	system	setting	how to read	measurement	result
Nc1ncc(-c2cc(-c3cnn(CC(F)(F)F)c3)ncc2F)nc1C(=O)NC1CNCC(F)C1 (stereo not drawn)	DYRK1B	KINOMEscan	–	1 µM	baseline: DMSO control	remaining binding	56%
[2H]C([2H])([18F])Oc1cc(C(=O)OCC2CCN(CCCC)CC2)ccc1N	–	PET SRTM	rhesus monkey, frontal cortex	baseline, unit not given	baseline: cerebellum	BPND	0.43 ± 0.13
CCCCCC(O)/C=C/C=O (stereo not drawn)	Treacle protein (Homo sapiens, UniProt Q13428)	competitive isoTOP-ABPP, item: TCOF1 cysteine peptide	Ramos soluble proteome	100 µM, together with: iodoacetamide probe	baseline: DMSO over compound-treated, higher = stronger cysteine blockade	isoTOP-ABPP competition ratio	1.7
COC1CN([C@H]2CC[C@H]([C@@]3(C)Oc4c(Cl)cc(C(=O)NCc5c(SC)cc(C)[nH]c5=O)c(C)c4O3)CC2)C1	–	RNA-seq, item: EPB41L5 mouse homolog	mouse, HT-1376 xenograft, whole blood	dose not given	baseline: vehicle	log2 fold change	4.34
COc1ccc(C=NOCc2ccc3nc(-c4ccccc4)c(Nc4ccc(C(=O)O)cc4)n3c2)cc1Cn1cccn1 (mixture of isomers)	TDP1	enzyme activity, inhibitor	–	100 µM, unpurified compound	–	inhibition	15.8%
O=C(Cn1ccnc1[N+](=O)[O-])NCc1ccccc1	–	reporter mRNA translation, inhibitor, item: Renilla luciferase mRNA	Trypanosoma cruzi cell extract	concentration not given	baseline: positive and negative controls	translation activity	101% and 91.3%
O=C(O)c1ccc(Nc2c(-c3ccccc3)nc3ccc(CON=Cc4ccc(S(=O)(=O)c5ccc(Cl)cc5)cc4)cn23)cc1 (mixture of isomers)	TDP1	enzyme activity, inhibitor	–	100 µM, unpurified compound	–	inhibition	65.4%
COc1cc2nc(N(CCCN(C)C)C(=O)c3ccc(S(=O)(=O)N4CCc5ccccc54)cc3)sc2cc1OC.Cl	–	reporter mRNA translation, inhibitor, item: Renilla luciferase mRNA	Trypanosoma cruzi cell extract	concentration not given	baseline: positive and negative controls	translation activity	96.9% and 89.4%
CNS(=O)(=O)Nc1nccc(Cc2c(C)c3ccc(Oc4ncccc4F)cc3oc2=O)c1F	COLO-679	cell viability	–	7 days	–	IC50	3.49 nM
O=C(Nc1[nH]nc(-c2ccccn2)c1C1CC1)N1CC[C@@H](Cn2cc(C(F)(F)F)cn2)C1	–	reporter mRNA translation, inhibitor, item: Renilla luciferase mRNA	Trypanosoma cruzi cell extract	concentration not given	baseline: positive and negative controls	translation activity	87.9% and 84.6%
CN(C(=O)C(C)(C)c1cc(C(F)(F)F)cc(C(F)(F)F)c1)c1cnc(N2C[C@H]3COCCN3C[C@H]2CO)cc1-c1ccc(F)cc1CO	–	–	human liver microsomes	formation of M18/21	–	Vmax	249 pmol/min/mg
Cc1ncsc1-c1ccc(C(C)NC(=O)C2CC(O)CN2C(=O)C(NC(=O)CCCCCCCCCCN2CCCC(Nc3ncc(Cl)c(Nc4ccccc4S(=O)(=O)C(C)C)n3)C2)C(C)(C)C)cc1 (stereo not drawn)	22Rv1	RNA-seq, item: PRIM1 mRNA	–	concentration not given	baseline: DMSO	log2 fold change	-1.13
Cc1cc(F)ccc1-c1cc(N2C[C@H]3COC(O)CN3C[C@H]2CO)ncc1N(C)C(=O)C(C)(C)c1cc(C(F)(F)F)cc(C(F)(F)F)c1 (stereo partly drawn)	–	–	human liver microsomes	formation of M18/21	–	Vmax	79 pmol/min/mg
O=C(O)c1ccc(Nc2c(-c3ccc(CON=Cc4c(C=Cc5ccoc5)oc5ccc(O)cc45)cc3)nc3cc(-c4ccccc4)ccn23)cc1	TDP1	enzyme activity, inhibitor	–	100 µM, unpurified compound	–	inhibition	51.1%
C=CC(=O)Nc1cccc(Cn2ncc3cnc(Nc4cnn(CCOC)c4)nc32)c1	human TRKB	KINOMEscan	–	100 nM	baseline: control	binding	56%
O=C(O)c1ccc(Nc2c(-c3ccc(CON=Cc4ccc(CN5CCCCC5)cc4)cc3)nc3cc(-c4ccccc4)ccn23)cc1	TDP1	enzyme activity, inhibitor	–	100 µM, unpurified compound	–	inhibition	82.5%
CN1CCCNC(=O)c2cccc(c2)C(=O)NCCCN(C)CCCNc2cccc3c2C(=O)c2cccc(c2C3=O)NCCC1	SAS	RNA-Seq, item: LUC7L mRNA	–	1 µM, 6 h	baseline: untreated cells	log2 fold change	0.574
CC(C)[C@H](NC(=O)[C@H](CC(=O)O)NC(=O)[C@@H](NC(=O)[C@H](Cc1c[nH]c2ccccc12)NC(=O)[C@H](CCC(=O)O)NC(=O)[C@H](C)NC(=O)[C@H](CC(=O)O)NC(=O)CNC(=O)[C@H](Cc1ccc(O)cc1)NC(=O)[C@H](Cc1ccc(OP(=O)(O)O)cc1)NC(=O)[C@H](Cc1ccc(O)cc1)NC(=O)CCNC(=O)c1ccc(C(=O)[O-])c(-c2c3ccc(=[N+](C)C)cc-3oc3cc(N(C)C)ccc23)c1)C(C)C)C(=O)N[C@@H](CO)C(=O)O	–	HPLC/LC-MS	PBS	concentration not given, 60 min, 37 °C, together with: alkaline phosphatase 30 U/mL	–	dephosphorylation conversion	~93%

Some of these lines once more:
Compound	target or system	assay	system	setting	how to read	measurement	result
O=C(Nc1[nH]nc(-c2ccccn2)c1C1CC1)N1CC[C@@H](Cn2cc(C(F)(F)F)cn2)C1	–	reporter mRNA translation, inhibitor, item: Renilla luciferase mRNA	Trypanosoma cruzi cell extract	concentration not given	baseline: positive and negative controls	translation activity	87.9% and 84.6%
